Published values from different studies.
Target: Dual specificity mitogen-activated protein kinase kinase 1 (MAP2K1, Homo sapiens, UniProt Q02750)
UniProt Q02750, sequence (whole entry, looked up): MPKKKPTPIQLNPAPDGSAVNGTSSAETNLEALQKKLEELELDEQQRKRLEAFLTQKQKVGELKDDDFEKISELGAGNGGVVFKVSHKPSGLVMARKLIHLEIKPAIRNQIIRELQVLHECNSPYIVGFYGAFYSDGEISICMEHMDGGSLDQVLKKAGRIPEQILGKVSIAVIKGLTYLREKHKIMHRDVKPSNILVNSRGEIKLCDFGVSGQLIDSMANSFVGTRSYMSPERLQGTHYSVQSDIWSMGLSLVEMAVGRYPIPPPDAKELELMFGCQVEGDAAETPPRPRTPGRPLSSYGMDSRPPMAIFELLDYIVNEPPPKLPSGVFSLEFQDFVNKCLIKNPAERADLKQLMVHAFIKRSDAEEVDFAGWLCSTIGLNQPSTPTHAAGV

| Compound | assay | test system | setting | scale | quantity | result |
| --- | --- | --- | --- | --- | --- | --- |
| CCOC(=O)[C@@H]1Cc2c(cc([N+](=O)[O-])cc2[N+](=O)[O-])[C@H](O)[C@]12C(=O)Nc1ccc(Br)cc12 | binding, competition with immobilised ligand | – | 0.1 µM | – | remaining binding | 55% |
| CN(/N=C/c1ccccc1C(=O)O)c1nc(-c2ccccc2Cl)cs1 | enzyme activity, inhibitor | – | 1 µM | – | inhibition | -6.19% |
| O=C1NC(=O)c2c1c1cc(F)c[n+]3c1c1c2c2cc(O)ccc2[n]1[Ru-4]312([N]=C=S)[S+]3CC[S+]1CC[S+]2CC3 (stereo not shown) | enzyme activity | – | 100 nM, human enzyme, with: 10 µM ATP | relative to: untreated | remaining activity | 108% |
| CC(C)[C@H]1NC(=O)C[C@H]2/C=C/CCSSC[C@@H](NC1=O)C(=O)N[C@H](Cc1cccc3ccccc13)C(=O)NCC(=O)O2 | – | – | 10 µM | – | inhibition | -1.9% |
| CS(C)(=O)=Nc1ccc(-c2ccc(-c3nc4cc(O[C@@H]5CO[C@H]6[C@@H]5OC[C@H]6O)[nH]c4cc3F)cc2)cc1 | enzyme activity, inhibitor | – | 10 µM | – | inhibition | -3% |
| O=C(N[C@@H]1c2ccccc2C[C@H]1N1CCCC1)c1ccc(-c2ccnc3[nH]ccc23)nc1 | binding, competition with immobilised ligand | – | 3 µM | – | remaining binding | 49% |
| CN(C)[C@H]1C[C@@]23CC[C@@]4(O2)C(=CC[C@]2(C)[C@@H](c5ccc6ccncc6c5)CC[C@H]24)C=C3[C@@H](O)[C@@H]1O | ATP probe labelling, inhibitor, KiNativ profiling | – | 1 µM | – | inhibition | -23.5% |
| C[C@H](NCc1ccc(-c2ccc(C(F)(F)F)cc2)cc1)C(N)=O | cell-free assay, competition with immobilised ligand | – | 1 µM | – | inhibition | 9% |
| Nc1ccc(/C=C/C(=O)N2CCc3c(oc4c(-c5ccc(F)cc5)cc(-c5ccc(C(=O)N6CCC(F)(F)CC6)cn5)cc34)C2)cn1 | binding, competition with immobilised ligand | – | 1 µM | – | remaining binding | 79% |
| C=CC(=O)Nc1cc(-c2nn(C3CCC(N4CCN(C(C)=O)CC4)CC3)c3ncnc(N)c23)ccc1Oc1ccccc1 (stereo not shown) | inhibitor, KiNativ profiling | biochemical | 2 µM | – | inhibition | 8.7% |

A few entries again:
| Compound | assay | test system | setting | scale | quantity | result |
| --- | --- | --- | --- | --- | --- | --- |
| O=C1NC(=O)c2c1c1cc(F)c[n+]3c1c1c2c2cc(O)ccc2[n]1[Ru-4]312([N]=C=S)[S+]3CC[S+]1CC[S+]2CC3 (stereo not shown) | enzyme activity | – | 100 nM, human enzyme, with: 10 µM ATP | relative to: untreated | remaining activity | 108% |
